Measured values from different studies.
Numbered parts are unrelated; each lists some results of a single study.

Sample 1 — technique: protein-binding microarray; molecule type: double-stranded DNA, one strand shown; sample: in vitro; tested at: not given; reading: higher = stronger binding; quantity: E-score
Target: Protein C-ets-1 (ETS1, Homo sapiens, UniProt P14921, residues 1-441, full length assumed)
Chain of UniProt P14921 (whole entry, looked up): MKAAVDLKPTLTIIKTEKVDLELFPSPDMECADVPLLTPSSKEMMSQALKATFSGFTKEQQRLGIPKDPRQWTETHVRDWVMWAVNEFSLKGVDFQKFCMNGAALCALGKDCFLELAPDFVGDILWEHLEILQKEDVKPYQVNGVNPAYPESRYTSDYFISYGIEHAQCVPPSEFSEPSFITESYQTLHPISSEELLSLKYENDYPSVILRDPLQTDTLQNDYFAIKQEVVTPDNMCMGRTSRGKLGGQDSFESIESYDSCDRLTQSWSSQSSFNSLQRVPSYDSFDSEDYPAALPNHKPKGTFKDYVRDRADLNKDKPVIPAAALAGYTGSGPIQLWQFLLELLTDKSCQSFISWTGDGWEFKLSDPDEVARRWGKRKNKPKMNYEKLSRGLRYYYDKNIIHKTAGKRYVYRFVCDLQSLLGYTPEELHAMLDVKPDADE
Setting: k-mer, scored over probes, only values ≥0.25
ACAGGAAG: 0.486
GGAAAGGA: 0.344
ATGGCCGG: 0.264
CTACCGGC: 0.27
CGGGAAAC: 0.396

Sample 2 — technique: RNA Bind-n-Seq; molecule type: RNA; sample: in vitro; tested at: 20 nM; setting: 6-mer, flanks averaged, single round; with: 150 mM KCl; relative to: input library; reading: higher = stronger binding; quantity: 6-mer enrichment (R)
Target: TAR DNA-binding protein 43, full length, His tag (TARDBP, Homo sapiens, UniProt Q13148, residues 1-414)
UUCGUA: 0.575
CGUGGA: 1.4
CUCCUG: 0.628
UAAAUG: 0.749
CAUCUU: 0.566
GCAGCA: 1

Sample 3 — technique: competition protein-binding microarray; molecule type: double-stranded DNA, one strand shown; sample: in vitro; tested at: 2 µM; with: Cbf1 competitor, 0.05 µM; reading: higher = stronger binding; quantity: fluorescence intensity; constant ends, left off below: … GTCTTGATTCGCTTGACGCTGCTG
Target: Phosphate system positive regulatory protein PHO4, full length, GST-tagged (PHO4, Saccharomyces cerevisiae, UniProt P07270, residues 1-312)
Setting: whole 60-bp probe, lowest competitor level
Target sequence (chain): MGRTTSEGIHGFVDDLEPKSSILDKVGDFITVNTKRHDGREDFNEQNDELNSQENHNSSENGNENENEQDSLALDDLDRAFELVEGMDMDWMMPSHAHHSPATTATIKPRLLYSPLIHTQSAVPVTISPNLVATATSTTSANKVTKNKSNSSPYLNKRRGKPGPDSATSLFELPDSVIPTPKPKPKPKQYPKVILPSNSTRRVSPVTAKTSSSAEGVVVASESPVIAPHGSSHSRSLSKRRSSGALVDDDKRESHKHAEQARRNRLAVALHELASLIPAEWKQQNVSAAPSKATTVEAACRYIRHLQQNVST
AAGAACCTGCAAGGGCATGTGCGGTTGTTGGAGCGA: 10400 a.u.
TGCGCAACAACTTGTCACATAACTTTATGTCTAGAA: 3130 a.u.
AAAGTAGTATTCCGTCACGTGATGGTGATCCAATTA: 13000 a.u.
GAAGTATTTTTTGCGAACGTGGAAGTATTTCACCCA: 10500 a.u.
CGTCCTAGTGATTTTCACGTGTTTTCCATGAGGAAG: 13900 a.u.

Single results of other studies
PhoQ, residues 284 288 289 292 302 303 SCCLKL — fold induction (PhoP, residues 12 14 15 18 19 IFFTR (Escherichia coli, UniProt P23836); Sort-seq, item: YFP reporter; E. coli; PhoQ-PhoP variant library, with: 10 µM Mg2+; relative to: high Mg2+ state, higher = stronger signaling): 0.524

Some of these lines once more (sample 3):
AAAGTAGTATTCCGTCACGTGATGGTGATCCAATTA: 13000 a.u.
GAAGTATTTTTTGCGAACGTGGAAGTATTTCACCCA: 10500 a.u.
